Measurements pooled from the literature.
Every numbered part comes from another study and shows a few of its results, in no order.

Series 1 — method: competition protein-binding microarray; molecule type: double-stranded DNA, one strand shown; medium: in vitro; concentration: 2 µM; with: Pho4 competitor, 0.05 µM; direction: higher = stronger binding; constant ends, left off below: … GTCTTGATTCGCTTGACGCTGCTG
Target: Centromere-binding protein 1, full length, His-tagged (CBF1, Saccharomyces cerevisiae, UniProt P17106, residues 1-351)
Chain of UniProt P17106 (whole entry, looked up): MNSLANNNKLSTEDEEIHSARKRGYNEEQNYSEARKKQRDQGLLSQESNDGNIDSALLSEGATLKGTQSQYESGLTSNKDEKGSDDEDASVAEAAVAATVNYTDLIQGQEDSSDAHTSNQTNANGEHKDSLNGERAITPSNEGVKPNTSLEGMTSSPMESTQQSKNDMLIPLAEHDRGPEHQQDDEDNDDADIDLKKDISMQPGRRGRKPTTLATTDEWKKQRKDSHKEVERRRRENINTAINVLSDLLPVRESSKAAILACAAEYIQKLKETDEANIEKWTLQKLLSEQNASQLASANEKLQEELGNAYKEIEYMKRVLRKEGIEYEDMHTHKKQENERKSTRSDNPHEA
Notes: whole 60-bp probe, lowest competitor level
The fluorescence intensity of `CGGGGTTAAGTTTGTACGGTGGGTGGCTTGCAGCAG` is reported as 52.8 a.u.
For `GGGCTACGGCGAGCGCACGCGCATACGTTGACCGCA`, the fluorescence intensity was 61.6 a.u.
`TGCTCGCAATGACAGCACGTGACGGAAAGTGAGAAT` gave a fluorescence intensity of 7980 a.u.
`ATTAGGGGACCTACACGCCTGAAAGTTTTTTAGATA` has a fluorescence intensity of 65.5 a.u.
`CATACCCAACCTTGGTTCGTGGGTGAAGATATTTGT` gave a fluorescence intensity of 63 a.u.
With `CGTCCTAGTGATTGTATAGTGGGTGCCATGAGGAAG` the fluorescence intensity was 90.7 a.u.
The fluorescence intensity of `GTCTTGTCTCATTGACATGTGGGTGTCCCCACTTCA` is reported as 100 a.u.
The fluorescence intensity of `AACGATGCCCTTACCCACGTTATTGTTGTATAATTC` is reported as 99.2 a.u.
`GCTCCGTTATGTTCACTCGTGTTTCTGATACTGGAT` has a fluorescence intensity of 96.7 a.u.
`CTTTCCCGATCTTGGTATGTGGGTGTAGCACATTTG` has a fluorescence intensity of 76.4 a.u.
The fluorescence intensity of `CTTGGCACACTCTGTTGCGTGGTGAAAATAGAACCA` is reported as 67.2 a.u.
`ACCGTATTTGCTCCTCACGTGTCCAGTAGGTTTCGG` has a fluorescence intensity of 2090 a.u.
`CGTTATGTCCCTAACGACGTGCAATAACTTGCGGAA` has a fluorescence intensity of 86.7 a.u.
For `ATGTTCATGGAAAAGCACGTGCCACTCCACTTCCAA`, the fluorescence intensity was 2120 a.u.
With `GTAGCAGAGAAAATCCACGTTTGGGCCGCGATGGCA` the fluorescence intensity was 62.5 a.u.
With `TGATAACTTCCGAGTCACGTGTGAAGGAATTCTTAA` the fluorescence intensity was 11500 a.u.
With `CTGGAATGGCTCGGCCACATGGGTGGGATTACCCGC` the fluorescence intensity was 65 a.u.
For `TAATTTGTAGTATTGAACGTGACGGGAAACAAAAAA`, the fluorescence intensity was 409 a.u.
For `CTAACGAAGGTTTGCAGCGTGGGTGACAAGCCAAGT`, the fluorescence intensity was 66.4 a.u.
`CGTTCTTAGCTGGTTCATGTGGATAAACATCTAAAG` has a fluorescence intensity of 87.2 a.u.
`GCTTTCAGGCACTAAGACGTGCAAAGATATAAGCCA` has a fluorescence intensity of 63.7 a.u.

Series 2 — method: RNA Bind-n-Seq; molecule type: RNA; medium: in vitro; concentration: 200 nM; notes: whole 134-nt RNA, ends assumed; with: 150 mM KCl; relative to: input library; direction: higher = stronger binding
Target: Ras GTPase-activating protein-binding protein 1, full length (G3BP1, Homo sapiens, UniProt Q13283)
Chain of UniProt Q13283 (whole entry, looked up): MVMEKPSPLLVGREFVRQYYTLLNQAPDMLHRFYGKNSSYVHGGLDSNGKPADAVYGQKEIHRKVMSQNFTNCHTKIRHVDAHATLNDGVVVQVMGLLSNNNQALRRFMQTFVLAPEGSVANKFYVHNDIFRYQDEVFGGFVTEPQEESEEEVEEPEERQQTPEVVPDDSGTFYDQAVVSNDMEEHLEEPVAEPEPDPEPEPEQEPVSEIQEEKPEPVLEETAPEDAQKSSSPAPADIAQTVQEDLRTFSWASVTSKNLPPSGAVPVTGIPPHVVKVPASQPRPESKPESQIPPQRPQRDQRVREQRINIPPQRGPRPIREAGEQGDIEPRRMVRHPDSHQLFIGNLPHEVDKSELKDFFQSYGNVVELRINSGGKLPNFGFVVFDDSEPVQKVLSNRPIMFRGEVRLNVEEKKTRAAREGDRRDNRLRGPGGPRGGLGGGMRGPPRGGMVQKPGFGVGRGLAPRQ
Constant ends, left off below: GGGAGUUCUACAGUCCGACGAUC … UGGAAUUCUCGGGUGUCAAGG
With `CCUGUGCUACACAUCGUAUGUACCGAAUCGGCCCCCCCGGCCCCCCCGGGGCCCCCCCGGGAAAGUAUUAUGUUACGCCGUUCGGAUCUG` the log2 enrichment was -0.0579.
The log2 enrichment of `GUCCUGUGCUACACAUCGUAUGUACCGAAUCGGGAAAAAAAGGGAAAAAGGGAAAGGGAAAGUAUUAUGUUACGCCGUUCGGAUCUGCAC` is reported as -0.349.
For `CACAGACAAGACGCACCCACACAGACACAGAGGGAAGGGGUUGGGAUGGGGACAGGGUGCACAGCAGGGCGGGGUAGGACCCCAGCCCCU`, the log2 enrichment was 1.84.
With `GUCCUGUGCUACACAUCGUAUGUACCGAAUCGGGUUUGGGAAAAAGGGAAAAAAAGGGAAAGUAUUAUGUUACGCCGUUCGGAUCUGCAC` the log2 enrichment was -0.331.
`CAAGUCCUGUGCUACACAUCGUAUGUACCGAAUCGGAAAGGGAAAGGGGAAAGGGGAAAGUAUUAUGUUACGCCGUUCGGAUCUGCACUU` gave a log2 enrichment of -0.132.
For `UAUAUUGAGGUAUAGAGCUAUUCUUUGUAGGUACCCUGGUGAGACCGAUACAAAUAUGCCCCUCCCCAUAAUGGAAUACUAAUUUUUAUU`, the log2 enrichment was -0.453.
`UGGCCCUGGUGGCAUGCGGGGAGGAAGAGGUGGCCUCAUGGAUCGUGGUGGUCCCGGUUGAAUGUUCAGAGGUGGCCGUGGUGGAGACAG` has a log2 enrichment of -0.115.
With `UGGGAGGUGGAUUUUGUUUAUUUUUUUAACUCAUUUCCAGGGGUGGGAAUUUUUUUUUAAUAUGUGUCAUGAAUAAAGUUGUUUUUGAAA` the log2 enrichment was 0.105.
For `UAACUUUAGAGGAGGAUCUGAUGGAUAUGGCAGUGGACGUGGAUUUGGGGAUGGCUAUACUGGGUAUGGAGGAGGACCUGGAGGUGGCAA`, the log2 enrichment was 0.363.
For `ACCAUGCAGGUGGGCAUCUAAAGGAAGUGGGGCAAGGGGGGGAUAGGGAGGGGGGUAACACUUUGGGAACAGGUGGUCCCAGGUCGUUUC`, the log2 enrichment was 1.41.
The log2 enrichment of `CAAGUCCUGUGCUACACAUCGUAUGUACCGAAUCGGGAAAGGGUGGGUUUUUGGGAAAGUAUUAUGUUACGCCGUUCGGAUCUGCACUUC` is reported as 0.578.
`ACCAUGCAGGUGGGCAUCUUUGGGAAGUGGGGCAAGGGGGGGAUAGGGAGGGUGGUAACACUUUGGGAACAGGUGGUCCCAGGUCGUUUC` has a log2 enrichment of 1.16.
With `UCCUGUGCUACACAUCGUAUGUACCGAAUCGGGGAAAAAGGGGUUUUUGGGGAAAGGGGAAAGUAUUAUGUUACGCCGUUCGGAUCUGCA` the log2 enrichment was 0.934.
The log2 enrichment of `UAACUUUAGAGGAGGAUCUGAUGGAUAUGGCAGUGGACGUGGAUUCGGGGAUGGCUAUAAUGGGUAUGGAGGAGGACCUGGAGGUGGCAA` is reported as 0.183.

Series 3 — method: RNA Bind-n-Seq; molecule type: RNA; medium: in vitro; concentration: 365 nM; relative to: no-protein control; direction: higher = stronger binding
Target: RNA binding protein fox-1 homolog 2, RRM domain, GST-SBP tag (RBFOX2, Homo sapiens, UniProt O43251-10, residues 100-194)
Notes: natural RNA segment, single round, ends assumed
Constant ends, left off below: GGGAGUUCUACAGUCCGACGAUC … UGGAAUUCUCGGGUGCCAA
Residues (chain): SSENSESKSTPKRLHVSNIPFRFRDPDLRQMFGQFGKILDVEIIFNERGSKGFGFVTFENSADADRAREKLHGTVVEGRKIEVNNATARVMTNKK
For `UCCCUCCUGCACACUGGGGCUUCCCUUCACCAGGAGCAAAUCACUUCAACCUCCCGUGCCUCGUUUCCUCCCUCUGUAGCAUGGGGCUCGAGACUCCUGUUUGUGAGGGA`, “RBNS enrichment (R)” read 0.697.
`UUCAUAAAUGAUAAAUGAUUCUGAAUGUUAGUGUUUUAUGUUCAUAUAGGAAAUAUUUUCAUUGAGUCCAAAAUACCACUGUUUUGUUGAUGGACUUGAAUGCAUUUUUG`: “RBNS enrichment (R)” 2.01.
`UAUGCCCUGGACAAAGAAGUAUGUUUUGCCUAUGUCCCCAUACCAGGACCUUCUUUCAGAACGAGGGUAGUAUUACCCUAUCUGUUGGAAAGGAUGGUUUACAUAGCAGU` — result for “RBNS enrichment (R)”: 0.601.
`GUAAUUCUUUCUUGUGGGGGCCGUCUUGGGUACUGUAGGAAGCUGAGCAGCAUUCCUGGCCUCCAUCCACAAGAUACCUGUAGCAGUGUCCUGCCAACGGUAACAAUCAA`: “RBNS enrichment (R)” 0.598.
`CCGACUAUGCCUUCUUGGGCACUGCACUGCUGCCUCACCAGUGGCAGCACAAGGUGCACUUCAUGGUCUCACUGGACCAUUCCAUGUGGUUCCACGCCCCCUUCCGAGCU`: “RBNS enrichment (R)” 0.217.
`GACAUCACCUCAUGCGAUGACCUCCCUCAUUCUGUGCUGCCUCAGCACUUAUCUUUUGAGUUUGUACUGUGGUCCAUGUACUUACUAAUAUGUUGCUUUGUAAUUAUUUU`: “RBNS enrichment (R)” 2.36.
For `AUAAUUGGCGGCUGUAACUACCUUCACGUGCUCCUCUUAUACACAGACUCUCCAGGACUGAGGACAGAGCUGCUCUUCUUCUUCUACGUUACUGUGGCCCUCUUGUCUGG`, “RBNS enrichment (R)” read 0.355.
Under “RBNS enrichment (R)”, `UUUUUGUUAACUAAAAAGUGAAAUAUGGGAUGGAUUCUAGAAAUGGGGUAUCUCUGUCCAUACUUCUAGAAUCCACUCUAUCAGCAUAGUCCAGAAGAAUACCUGGCAGU` is recorded as 0.266.
Under “RBNS enrichment (R)”, `GCUUGUUUGGGGGUUUGUUCCCAUCCAUGAGUAGAGUUGACAAGAAGAAUUUAAACGGGAGUCUGAAGACCUGCUGUUACUAGAAAGUUAAGAAAGGCGCUUUACAGAUA` is recorded as 0.563.
For `CCUUUCUCCUGUGGACUAGCCUGGAAAGGAGGCGCUUCUAGGCCACCUGGCACAGUUUUCUCUGAACUCUGGAAGACUUCUGAUGGGUGGUGUUCAGCUUCGACAAAGAU`, “RBNS enrichment (R)” read 0.443.
`UGGAGUUCAGGUUUAUUUUCUAUUUAAAUGAACUAAAAGCCAGCAUCCUGCCGGGCGUGGUGGCUCACGCCCAUAAUCCAGCACUUUGGGAAGCCGAGGCGGGCAGAUCA` — result for “RBNS enrichment (R)”: 0.41.
`CCCUUCUCUCUCCUGAGGUGAAGCUUUUCCAGGUUUUGUUGAAGAGAUACCUGCCAGCACUUCUGCAAGCUGAAAUUUACAGAAGCAAAUUCACCAGAAGGGAAACAUCU`: “RBNS enrichment (R)” 0.288.

Series 4 — method: protein binding microarray; molecule type: double-stranded DNA, one strand shown; medium: in vitro; concentration: not given; relative to: not given; direction: higher = stronger binding
Target: Histone acetyltransferase KAT6A, both winged helices, GST fusion (KAT6A, Homo sapiens, UniProt Q92794, residues 1-181)
Notes: 8-mer, flanks averaged, mean of 2 arrays, mostly near background
Residues (chain): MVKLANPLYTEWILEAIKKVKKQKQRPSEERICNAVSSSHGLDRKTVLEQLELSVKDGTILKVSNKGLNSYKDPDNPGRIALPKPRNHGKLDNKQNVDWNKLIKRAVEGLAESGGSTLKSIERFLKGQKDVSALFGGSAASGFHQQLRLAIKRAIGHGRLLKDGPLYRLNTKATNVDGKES
The E-score of `ACCATCAT` is reported as -0.148.
With `ATCTTCGG` the E-score was 0.022.
`ACCCAAAG` gave an E-score of -0.112.
For `ACACGGTA`, the E-score was 0.206.
`AAACAATC` has an E-score of 0.0309.
With `ATCCGTTA` the E-score was 0.171.
`CCTTGCTA` has an E-score of -0.186.
The E-score of `CCACGACC` is reported as -0.178.
With `AGGTTAAC` the E-score was 0.0674.
For `AATCTCAC`, the E-score was -0.0326.
With `CCCACAAA` the E-score was -0.151.
The E-score of `CAACGTTA` is reported as -0.0224.
`CACGAGCC` has an E-score of -0.0864.
For `AATTCTCC`, the E-score was -0.0153.
`CAGTAGCG` has an E-score of 0.223.
For `ACTGGTAA`, the E-score was -0.101.
For `GGATCCAC`, the E-score was 0.0642.
With `CGGCCAAG` the E-score was 0.139.
For `AGTTATAG`, the E-score was -0.107.
`ATTTTAGA` gave an E-score of -0.0172.
`GATATTGA` gave an E-score of -0.138.
The E-score of `AGTCTGCA` is reported as -0.109.
The E-score of `ACGATATA` is reported as -0.0834.
With `TATTATGA` the E-score was 0.0386.
`GTTAAGGA` has an E-score of -0.0178.

Some of these lines once more (series 3):
For `UCCCUCCUGCACACUGGGGCUUCCCUUCACCAGGAGCAAAUCACUUCAACCUCCCGUGCCUCGUUUCCUCCCUCUGUAGCAUGGGGCUCGAGACUCCUGUUUGUGAGGGA`, “RBNS enrichment (R)” read 0.697.
`UUCAUAAAUGAUAAAUGAUUCUGAAUGUUAGUGUUUUAUGUUCAUAUAGGAAAUAUUUUCAUUGAGUCCAAAAUACCACUGUUUUGUUGAUGGACUUGAAUGCAUUUUUG`: “RBNS enrichment (R)” 2.01.
`UAUGCCCUGGACAAAGAAGUAUGUUUUGCCUAUGUCCCCAUACCAGGACCUUCUUUCAGAACGAGGGUAGUAUUACCCUAUCUGUUGGAAAGGAUGGUUUACAUAGCAGU` — result for “RBNS enrichment (R)”: 0.601.
`GUAAUUCUUUCUUGUGGGGGCCGUCUUGGGUACUGUAGGAAGCUGAGCAGCAUUCCUGGCCUCCAUCCACAAGAUACCUGUAGCAGUGUCCUGCCAACGGUAACAAUCAA`: “RBNS enrichment (R)” 0.598.
`CCGACUAUGCCUUCUUGGGCACUGCACUGCUGCCUCACCAGUGGCAGCACAAGGUGCACUUCAUGGUCUCACUGGACCAUUCCAUGUGGUUCCACGCCCCCUUCCGAGCU`: “RBNS enrichment (R)” 0.217.
`GACAUCACCUCAUGCGAUGACCUCCCUCAUUCUGUGCUGCCUCAGCACUUAUCUUUUGAGUUUGUACUGUGGUCCAUGUACUUACUAAUAUGUUGCUUUGUAAUUAUUUU`: “RBNS enrichment (R)” 2.36.
